Measurements collected from several papers.
Each line is one published result; not all experiments were run side by side.
Cell line: TMD8
Read-out: cell growth or viability

For O=C(NCC1(c2nc(-c3ccccc3)cs2)CCOCC1)c1cccc(-c2noc(C(F)(F)F)n2)c1, the IC50 was > 20000 nM (CCK-8; 7 days).
CC#CC(=O)N1CCC[C@H]1c1nc(-c2ccc(C(=O)Nc3ccccn3)cc2)c2c(N)nccn12 gave an IC50 of 7.5 nM (ATP luminescence; 96 h).
C=CC(=O)N1CCCC(n2c(=O)c3ncccc3n(Cc3ccc(Oc4ccccc4)cc3)c2=O)C1 (stereo not drawn) has an IC50 of 500 nM (MTT; 72 h).
For CCC1C(COc2nccc3cc(C(N)=O)c(OC)cc23)NC(=O)C1F (stereo not drawn), the GI50 was > 10000 nM (WST-1; 72 h).
For CC#CC(=O)N1CCC[C@H]1c1nc(-c2ccc(C(=O)Nc3ccccn3)cc2)c2c(N)nccn12, the IC50 was 4.9 nM (ATP luminescence; 72 h).
C=CC(=O)N1CCC[C@@H](n2nc(-c3ccc(Oc4ccccc4)cc3)c3c(N)ncnc32)C1 gave an IC50 of 1.5 nM (ATP luminescence; 96 h).
C=CC(=O)N1CCC([C@@H]2CCNc3c(C(N)=O)c(-c4ccc(Oc5ccccc5)cc4)nn32)CC1 has an IC50 of 0.6 nM (ATP luminescence; 72 h).
O=C1CCC(N2C(=O)c3ccc(N4CCC(C(=O)N5CCC(CCN6CCC(CNC(=O)c7cccc(-c8noc(C(F)(F)F)n8)c7)(c7nc(-c8ccccc8)cs7)CC6)CC5)CC4)cc3C2=O)C(=O)N1 (stereo not drawn) gave an IC50 of 1880 nM (CCK-8; 7 days).
Fc1cncc(-c2ccc3[nH]c4ncnc(N[C@H]5CC[C@H](N6CCOCC6)CC5)c4c3c2)c1 has a GI50 of 1800 nM (WST-1; 72 h).

For quick reference, copied from above:
C=CC(=O)N1CCC([C@@H]2CCNc3c(C(N)=O)c(-c4ccc(Oc5ccccc5)cc4)nn32)CC1 has an IC50 of 0.6 nM (ATP luminescence; 72 h).
